{"data": "Results pooled from the literature", "cell line": "Huh-7", "note": "± gives the spread as reported."}
{"Structure (SMILES)": "Nc1nc(Nc2ccc(Cl)cc2)nn1S(=O)(=O)c1ccc2ccccc2c1", "endpoint": "CC50", "value": "6.2 µM"}
{"Structure (SMILES)": "CC1CCC(C(C)(C)C(=O)Nc2ccc(Oc3ccccc3)cc2)CC1 (centres unmarked)", "read-out": "cell growth or viability", "time": "72 h", "endpoint": "IC50", "value": "29.2 µM"}
{"Structure (SMILES)": "CC(C)C(=O)OC[C@H]1O[C@@](C#N)(n2ccc(N)nc2=O)[C@H](O)[C@@H]1O", "read-out": "cell growth or viability", "endpoint": "CC50", "value": "> 100 µM"}
{"Structure (SMILES)": "Nc1c2c(nc3sc4c(c13)CCCCC4)CCCC2", "read-out": "cell growth or viability", "technique": "ATP luminescence", "time": "72 h", "endpoint": "IC50", "value": "> 10 µM"}
{"Structure (SMILES)": "O=C(N[C@@H](Cc1ccccc1)C(=O)N[C@@H](C[C@@H]1CCNC1=O)C(O)S(=O)(=O)O)OCc1ccccc1 (some centres unmarked)", "time": "5 (unit not given)", "endpoint": "CC50", "value": "108 ± 10.4 µM"}
{"Structure (SMILES)": "O[Si](CCCN1CCCCC1)(c1ccc(F)cc1)C1CCCCC1 (centres unmarked)", "read-out": "cell growth or viability", "time": "72 h", "endpoint": "IC50", "value": "61 µM"}
{"Structure (SMILES)": "Cc1ccn2c(-c3csc(Nc4ccccn4)n3)c(C)nc2c1", "read-out": "cell growth or viability", "technique": "ATP luminescence", "time": "72 h", "endpoint": "IC50", "value": "> 10 µM"}
{"Structure (SMILES)": "CC(C)CC(NC(=O)OCc1ccccc1)C(=O)NC(CC1CCNC1=O)C(=O)C(=O)NC1CC1 (centres unmarked)", "time": "5 (unit not given)", "endpoint": "CC50", "value": "> 250 µM"}
{"note": "Excerpt of the above:"}
{"Structure (SMILES)": "Nc1nc(Nc2ccc(Cl)cc2)nn1S(=O)(=O)c1ccc2ccccc2c1", "endpoint": "CC50", "value": "6.2 µM"}
